Published values pooled from the literature.
Numbered parts are unrelated; each lists some results of a single study. Changes are numbered by the printed parent chain.

Block 1
Target: Mu-type opioid receptor (OPRM1, Homo sapiens, UniProt P35372)
UniProt P35372, sequence (whole entry, looked up): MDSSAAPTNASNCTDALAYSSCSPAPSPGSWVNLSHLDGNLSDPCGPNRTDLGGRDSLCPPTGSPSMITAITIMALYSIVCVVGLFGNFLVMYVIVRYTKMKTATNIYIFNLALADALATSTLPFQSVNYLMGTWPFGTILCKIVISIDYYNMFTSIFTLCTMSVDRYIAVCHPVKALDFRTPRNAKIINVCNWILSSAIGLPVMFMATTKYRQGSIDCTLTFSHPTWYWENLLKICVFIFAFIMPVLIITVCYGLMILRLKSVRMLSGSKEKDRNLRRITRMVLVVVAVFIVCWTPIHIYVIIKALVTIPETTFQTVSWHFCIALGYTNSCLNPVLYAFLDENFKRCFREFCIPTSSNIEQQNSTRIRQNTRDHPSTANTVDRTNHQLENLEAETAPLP
Observed: ligand displacement
Tested at: 10 µM
Quantity: inhibition
O=C(NS(=O)(=O)c1ccc(NCC2CCOCC2)c([N+](=O)[O-])c1)c1ccc(N2CCN(Cc3ccc(C(F)(F)F)cc3-c3ccc(Cl)cc3)CC2)cc1Oc1cnc2[nH]ccc2c1: 10.7%
NC(=O)c1ccc2nc(-c3ccc(C4(N)CCC4)cc3)c(-c3ccccc3)n2n1: 31.1%
Cc1noc([C@H]2C[C@@H](c3ccc(C(F)(F)F)cc3)CN(C(=O)N3CCS(=O)(=O)C3)C2)n1: 2.23%
CN([C@@H]1CCc2c(CC(=O)O)c3ccccc3n2C1)S(=O)(=O)c1ccc(F)cc1: 1.33%
CC[C@H](CC(=O)O)n1c(=O)c2ncccc2n(Cc2cn(C)c3cc(C)cc(C)c23)c1=O: 2.82%
CCC(F)(F)c1cc(N2CCC(S(C)(=O)=O)CC2)nc2sc(C(N)=O)c(N)c12: 5.18%
CCc1ccccc1C(=O)Nc1n[nH]c2c(C)c(F)c(C3C(C#N)=C(C)N(C)C(C)=C3C#N)cc12: 30.5%
Cc1cc(Nc2nccc(C)n2)cc(-c2cnc([C@@]3(O)CC[C@H](C(=O)O)C(C)(C)C3)s2)c1: 17.3%
CN1CCN(c2ccnc(NCCc3ccccc3)n2)CC1: 25.9%
c1ccc(N2CCN(Cc3nc4ccccc4[nH]3)CC2)nc1: 13.2%
Cn1nc(C(=O)NCc2ccc(C(=O)O)cc2)cc1-c1ccc2[nH]ccc2c1: 2.9%
C[C@@H]1CN(c2cc(-c3n[nH]c4ccc(OC5(C)CC5)cc34)ncn2)C[C@H](C)O1: -12.3%
COc1cc(N[C@@H]2CCCC[C@]2(O)C(F)(F)F)ccc1F: 10.3%
CN(C)c1ncnc(-c2ccc3nc(Nc4cc(CN5CCN(C(=O)CC(F)(F)F)CC5)ccn4)[nH]c3c2)c1Cl: 14.1%
CO[C@H]1CC[C@H](CNc2ccc(S(=O)(=O)NC(=O)c3ccc(N4CCN(CC5=C(c6ccc(Cl)cc6)CC(C)(C)CC5)CC4)cc3Oc3cnc4[nH]ccc4c3)cc2[N+](=O)[O-])CC1: 10.2%
CN1CCN(c2cnc3c(C4CCN(C(=O)c5ccc(OC(F)(F)F)cc5N)CC4)ncnc3c2)CC1: 13.2%
CC(=O)Nc1ncc(CN2CCC[C@H](Cc3cc(C)nc(C)c3)C2)s1: 12.8%

Block 2
Target: CCNF, cyclin fold, Cln2 fusion (human)
Method: yeast growth competition, sequencing
Matrix: yeast
Setting: strong parent motif
Reference: not given
Reading: higher = stronger binding
Quantity: normalised enrichment score
Starting sequence: viral docking peptide; YKVKRRLVFGADD
G10H: 8.15
R6L: 8.22
L7I: 7.8
K2A: 8.71
L7R: 1.1
K2F: 9.01
L7N: 0.88
V3P: 8.82

Block 3
Target: HLA class I histocompatibility antigen, A alpha chain, allele A*80:01 (Homo sapiens, UniProt P04439)
Observed: peptide-MHC binding
Form: peptide
Reading: direction not given
Quantity: z-score of log IC50
CLSPVVAGL: 0.38
FGAAVSLLF: 0.38
AARISSCLK: 0.38
FLAAECPFL: 0.38
APDGFYPFK: 0.38
FTGEYLLRL: 0.38
AYDHGNVIL: 0.38
FSDVSHWWQ: 0.38

Other studies, line by line
Cl.Oc1cc2c(cc1O)[C@H]1c3ccccc3CN[C@@H]1CC2  log2 fold change (Sarcocystis neurona; parasite growth; 10 µM, second screen; reference: untreated): 0.75

Repeated from above (block 3):
APDGFYPFK: 0.38
FGAAVSLLF: 0.38
AARISSCLK: 0.38
